Published values pooled from the literature.
Compare with care: the assays were run in different laboratories. ± gives the spread as reported.
DRD2: D(2) dopamine receptor (DRD2, Homo sapiens, UniProt P14416)
Chain of UniProt P14416 (whole entry, looked up): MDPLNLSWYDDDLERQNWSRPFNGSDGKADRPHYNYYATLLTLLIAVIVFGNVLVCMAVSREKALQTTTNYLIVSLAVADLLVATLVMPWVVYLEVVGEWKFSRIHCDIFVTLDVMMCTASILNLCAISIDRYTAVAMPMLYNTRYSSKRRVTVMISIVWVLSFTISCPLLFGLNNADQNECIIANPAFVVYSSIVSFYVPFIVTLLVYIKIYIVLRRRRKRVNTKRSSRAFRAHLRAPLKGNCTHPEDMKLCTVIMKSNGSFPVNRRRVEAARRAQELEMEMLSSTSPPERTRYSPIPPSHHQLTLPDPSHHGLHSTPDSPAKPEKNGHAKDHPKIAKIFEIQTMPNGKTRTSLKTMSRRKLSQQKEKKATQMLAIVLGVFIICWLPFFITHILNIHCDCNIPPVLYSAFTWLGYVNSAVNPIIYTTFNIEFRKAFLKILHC
CSNK1E: Casein kinase I isoform epsilon (CSNK1E, Homo sapiens, UniProt P49674)
Chain of UniProt P49674 (whole entry, looked up): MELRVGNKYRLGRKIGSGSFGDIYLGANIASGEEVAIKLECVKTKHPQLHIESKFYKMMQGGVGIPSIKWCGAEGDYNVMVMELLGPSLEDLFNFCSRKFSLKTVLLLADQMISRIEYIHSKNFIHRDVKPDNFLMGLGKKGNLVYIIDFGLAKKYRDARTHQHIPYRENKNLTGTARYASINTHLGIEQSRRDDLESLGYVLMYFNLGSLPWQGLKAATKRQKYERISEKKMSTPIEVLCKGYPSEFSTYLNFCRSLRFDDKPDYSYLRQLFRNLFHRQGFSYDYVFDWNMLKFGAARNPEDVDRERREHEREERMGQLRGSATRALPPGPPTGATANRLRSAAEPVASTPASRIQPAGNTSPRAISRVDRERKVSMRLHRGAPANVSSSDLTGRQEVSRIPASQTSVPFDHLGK
60 kDa heat shock protein, mitochondrial with HSP10: 60 kDa heat shock protein, mitochondrial, with HSP10 (Homo sapiens, UniProt P10809)
Chain of UniProt P10809 (whole entry, looked up): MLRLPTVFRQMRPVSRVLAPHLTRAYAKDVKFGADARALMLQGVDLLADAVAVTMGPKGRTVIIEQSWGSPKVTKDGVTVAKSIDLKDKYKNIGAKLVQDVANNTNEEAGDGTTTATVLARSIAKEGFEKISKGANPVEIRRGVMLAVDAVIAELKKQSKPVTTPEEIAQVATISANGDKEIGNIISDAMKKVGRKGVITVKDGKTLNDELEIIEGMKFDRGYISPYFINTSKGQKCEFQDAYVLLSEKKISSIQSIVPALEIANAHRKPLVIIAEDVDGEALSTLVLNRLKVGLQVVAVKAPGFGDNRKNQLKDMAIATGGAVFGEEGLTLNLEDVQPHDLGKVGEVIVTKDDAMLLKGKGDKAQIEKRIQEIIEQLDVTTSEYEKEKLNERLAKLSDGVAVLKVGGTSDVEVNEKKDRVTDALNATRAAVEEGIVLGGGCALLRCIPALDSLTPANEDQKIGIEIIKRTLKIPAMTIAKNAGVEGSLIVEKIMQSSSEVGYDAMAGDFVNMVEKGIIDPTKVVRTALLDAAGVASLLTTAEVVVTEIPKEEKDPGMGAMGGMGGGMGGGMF
PTGS2: Prostaglandin G/H synthase 2 (PTGS2, Homo sapiens, UniProt P35354)
Chain of UniProt P35354 (whole entry, looked up): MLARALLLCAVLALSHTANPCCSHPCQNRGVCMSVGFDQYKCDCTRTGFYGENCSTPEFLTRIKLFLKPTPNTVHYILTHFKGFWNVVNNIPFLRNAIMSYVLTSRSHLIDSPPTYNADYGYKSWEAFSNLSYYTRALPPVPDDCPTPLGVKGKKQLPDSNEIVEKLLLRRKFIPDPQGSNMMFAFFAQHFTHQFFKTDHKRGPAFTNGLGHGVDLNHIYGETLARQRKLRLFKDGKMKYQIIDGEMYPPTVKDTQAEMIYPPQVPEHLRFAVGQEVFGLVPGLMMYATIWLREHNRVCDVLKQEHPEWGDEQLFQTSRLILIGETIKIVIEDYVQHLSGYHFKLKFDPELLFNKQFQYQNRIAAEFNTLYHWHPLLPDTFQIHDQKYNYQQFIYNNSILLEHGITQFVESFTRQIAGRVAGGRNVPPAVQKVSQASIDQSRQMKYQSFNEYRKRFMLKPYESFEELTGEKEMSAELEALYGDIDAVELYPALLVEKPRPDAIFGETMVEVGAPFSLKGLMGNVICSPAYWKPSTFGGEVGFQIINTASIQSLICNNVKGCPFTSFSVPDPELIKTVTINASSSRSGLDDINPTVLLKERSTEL
SIRT5: NAD-dependent protein deacylase sirtuin-5, mitochondrial (SIRT5, Homo sapiens, UniProt Q9NXA8)
Chain of UniProt Q9NXA8 (whole entry, looked up): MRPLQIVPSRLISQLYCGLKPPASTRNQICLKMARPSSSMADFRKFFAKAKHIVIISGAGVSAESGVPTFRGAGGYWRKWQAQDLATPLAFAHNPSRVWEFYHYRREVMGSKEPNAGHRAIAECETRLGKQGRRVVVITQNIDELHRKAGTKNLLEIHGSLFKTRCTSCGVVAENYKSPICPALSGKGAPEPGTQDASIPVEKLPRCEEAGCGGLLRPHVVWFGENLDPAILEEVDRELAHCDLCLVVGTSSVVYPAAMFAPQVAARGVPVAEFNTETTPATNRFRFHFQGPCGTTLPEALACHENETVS
CDK6 with cyclin D1: Cyclin-dependent kinase 6, with cyclin D1 (CDK6, Homo sapiens, UniProt Q00534)
Chain of UniProt Q00534 (whole entry, looked up): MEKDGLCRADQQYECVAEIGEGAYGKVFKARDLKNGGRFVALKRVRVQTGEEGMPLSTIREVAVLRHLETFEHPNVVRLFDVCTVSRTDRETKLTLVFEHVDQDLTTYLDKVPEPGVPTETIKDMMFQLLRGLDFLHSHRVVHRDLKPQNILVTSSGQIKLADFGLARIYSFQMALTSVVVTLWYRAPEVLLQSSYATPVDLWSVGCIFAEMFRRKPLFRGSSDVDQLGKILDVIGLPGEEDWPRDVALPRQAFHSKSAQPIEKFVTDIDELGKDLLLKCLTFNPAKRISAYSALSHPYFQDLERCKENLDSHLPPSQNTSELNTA
Lysine--tRNA ligase, cytoplasmic: Lysine--tRNA ligase, cytoplasmic (Arabidopsis thaliana, UniProt Q9ZPI1)
Chain of UniProt Q9ZPI1 (whole entry, looked up): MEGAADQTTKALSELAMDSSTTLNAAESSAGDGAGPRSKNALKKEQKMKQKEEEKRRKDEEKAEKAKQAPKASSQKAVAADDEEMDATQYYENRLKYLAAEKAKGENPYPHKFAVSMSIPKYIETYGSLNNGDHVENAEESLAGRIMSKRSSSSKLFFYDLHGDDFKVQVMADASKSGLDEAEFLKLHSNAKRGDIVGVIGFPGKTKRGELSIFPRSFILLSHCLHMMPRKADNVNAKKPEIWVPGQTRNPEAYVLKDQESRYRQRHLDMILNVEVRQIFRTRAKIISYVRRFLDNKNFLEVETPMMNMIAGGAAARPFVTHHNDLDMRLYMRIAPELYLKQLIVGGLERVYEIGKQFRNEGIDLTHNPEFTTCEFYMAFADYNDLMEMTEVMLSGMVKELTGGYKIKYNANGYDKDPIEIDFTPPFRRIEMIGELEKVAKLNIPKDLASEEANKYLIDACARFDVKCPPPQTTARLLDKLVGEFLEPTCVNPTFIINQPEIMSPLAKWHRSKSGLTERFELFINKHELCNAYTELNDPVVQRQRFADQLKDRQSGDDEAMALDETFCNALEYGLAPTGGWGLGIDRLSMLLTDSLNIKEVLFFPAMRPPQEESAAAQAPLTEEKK
MCL1: Induced myeloid leukemia cell differentiation protein Mcl-1 (MCL1, Homo sapiens, UniProt Q07820)
Chain of UniProt Q07820 (whole entry, looked up): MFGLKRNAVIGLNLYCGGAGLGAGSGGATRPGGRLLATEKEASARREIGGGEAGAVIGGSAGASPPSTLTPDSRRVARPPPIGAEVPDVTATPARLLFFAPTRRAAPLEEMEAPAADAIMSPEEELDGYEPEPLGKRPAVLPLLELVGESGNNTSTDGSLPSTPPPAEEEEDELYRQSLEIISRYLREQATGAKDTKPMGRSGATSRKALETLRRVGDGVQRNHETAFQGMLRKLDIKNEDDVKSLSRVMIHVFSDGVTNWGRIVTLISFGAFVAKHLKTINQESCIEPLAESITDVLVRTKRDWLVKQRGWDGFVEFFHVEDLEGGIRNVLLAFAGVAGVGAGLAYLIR
KRAS with SOS1: GTPase KRas, with SOS1 (KRAS, Homo sapiens, UniProt P01116)
TAF1L BD2: Transcription initiation factor TFIID subunit 1-like, BD2 (TAF1L, Homo sapiens, UniProt Q8IZX4)
NTRK2: BDNF/NT-3 growth factors receptor (NTRK2, Homo sapiens, UniProt Q16620)
Chain of UniProt Q16620 (whole entry, looked up): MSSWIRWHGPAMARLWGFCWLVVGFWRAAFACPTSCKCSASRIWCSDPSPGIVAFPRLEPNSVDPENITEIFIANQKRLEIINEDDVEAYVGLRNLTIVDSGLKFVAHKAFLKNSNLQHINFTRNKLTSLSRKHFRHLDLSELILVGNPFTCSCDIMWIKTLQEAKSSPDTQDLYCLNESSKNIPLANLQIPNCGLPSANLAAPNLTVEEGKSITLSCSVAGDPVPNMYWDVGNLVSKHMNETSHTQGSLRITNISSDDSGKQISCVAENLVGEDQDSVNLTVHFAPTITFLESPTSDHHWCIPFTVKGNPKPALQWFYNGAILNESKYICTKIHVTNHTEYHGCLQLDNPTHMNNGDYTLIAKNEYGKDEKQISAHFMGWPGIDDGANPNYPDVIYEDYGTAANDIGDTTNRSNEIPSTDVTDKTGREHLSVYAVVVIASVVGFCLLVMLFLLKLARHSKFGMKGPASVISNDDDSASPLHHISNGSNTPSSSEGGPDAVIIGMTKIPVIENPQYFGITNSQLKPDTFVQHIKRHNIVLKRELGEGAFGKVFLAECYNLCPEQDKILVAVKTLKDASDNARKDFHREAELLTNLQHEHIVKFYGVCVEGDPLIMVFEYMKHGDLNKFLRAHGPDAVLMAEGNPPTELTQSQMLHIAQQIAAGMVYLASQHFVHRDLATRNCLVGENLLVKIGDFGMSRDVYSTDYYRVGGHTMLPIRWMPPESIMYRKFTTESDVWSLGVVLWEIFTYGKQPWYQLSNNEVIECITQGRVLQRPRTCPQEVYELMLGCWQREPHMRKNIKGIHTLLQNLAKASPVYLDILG
DNA polymerase catalytic subunit: DNA polymerase catalytic subunit (Human cytomegalovirus, UniProt P08546)
Chain of UniProt O60760 (whole entry, looked up): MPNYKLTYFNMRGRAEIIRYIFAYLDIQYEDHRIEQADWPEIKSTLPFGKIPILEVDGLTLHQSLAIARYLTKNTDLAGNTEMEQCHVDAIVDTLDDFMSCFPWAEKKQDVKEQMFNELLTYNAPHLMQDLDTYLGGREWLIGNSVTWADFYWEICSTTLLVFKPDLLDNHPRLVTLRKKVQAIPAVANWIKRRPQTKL
Chain of UniProt O09061 (whole entry, looked up): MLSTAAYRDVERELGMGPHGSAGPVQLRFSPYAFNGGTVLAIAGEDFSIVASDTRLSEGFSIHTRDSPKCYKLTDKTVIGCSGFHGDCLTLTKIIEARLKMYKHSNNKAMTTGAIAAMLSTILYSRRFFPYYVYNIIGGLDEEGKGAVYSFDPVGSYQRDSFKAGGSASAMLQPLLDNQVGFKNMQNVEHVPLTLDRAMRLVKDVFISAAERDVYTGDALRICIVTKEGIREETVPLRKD

Structure (SMILES)	tested on	assay	test system	conditions	scale	quantity	result
C[C@]1(c2nc(-c3cccc(N4CCNCC4)c3)no2)CCCc2sc(N)c(C#N)c21	GTPase KRas, with SOS1 (KRAS, Homo sapiens, UniProt P01116, C118S/G12V)	KRAS G12V-SOS1 interaction, inhibitor, AlphaScreen	–	–	–	IC50	≤ 1 µM
Cc1[nH]c(C)c(S(=O)(=O)Nc2ccc(N(C)C)c(Cl)c2)c1C(=O)N1CCC(F)(F)C1	DRD2	–	–	–	–	IC50	> 100 µM
Cc1cccc(-c2nc(-c3ccc(C(=O)O)cc3)[nH]c2-c2ccncc2)c1	CSNK1E	inhibitor	–	–	–	IC50	1.06 ± 0.108 µM
COc1cc(/C=N/n2c(C)nc3ccc(C)cc3c2=O)cc([N+](=O)[O-])c1O	XDH (Bos taurus, UniProt P80457)	enzyme activity, inhibitor	–	–	–	IC50	190 ± 7.68 µM
Cc1nn(C)c2ncc(C(=O)NCc3ccccc3)c(Cl)c12	60 kDa heat shock protein, mitochondrial with HSP10	HSP60/10-mediated MDH refolding	–	30 min, preincubation before ATP, with: denatured malate dehydrogenase	–	IC50	11 µM
O=c1cc(-c2ccc(O)c(O)c2)oc2cc(O)c([C@@H]3O[C@H](CO)[C@@H](O)[C@H](O)[C@H]3O)c(O)c12	PTGS2	–	–	–	–	IC50	41 µM
Cn1ncc2c(Cl)c(C(=O)NCc3ccccc3)cnc21	60 kDa heat shock protein, mitochondrial with HSP10	HSP60/10-mediated MDH refolding	–	5 min, preincubation before ATP, with: denatured malate dehydrogenase	–	IC50	34 µM
O=C(NC1CCC1)[C@H](Cc1c[nH]c2ccccc12)NC(=O)[C@H](CCCCNC(=S)NCCc1nnn[nH]1)NS(=O)(=O)c1cccc(F)c1	SIRT5	enzyme activity, inhibitor	–	–	–	IC50	0.06 ± 0.01 µM
CN(C)C(=O)c1cc2cnc(Nc3ccc(-c4ccc5c(=O)cc(N6CCOCC6)oc5c4)c(F)c3)nc2n1C1CCCC1	CDK6 with cyclin D1	inhibitor, HotSpot radiometric kinase	–	with: 10 µM ATP, cyclin D1	–	IC50	0.0304 µM
Nc1cc(C(=O)NCc2ccc(F)cc2F)sn1	Lysine--tRNA ligase, cytoplasmic	enzyme activity, inhibitor	–	–	–	IC50	12.6 µM
Cc1ccc(NS(=O)(=O)c2c(C)[nH]c(C)c2C(=O)N2CCC(F)(F)C2)nc1Cl	DRD2	–	–	–	–	IC50	> 100 µM
CC[C@@H]1[C@H](F)C(=O)N[C@@H]1COc1nccc2cc(C(N)=O)c(OC)cc12	MAPK7 (Homo sapiens, UniProt Q13164)	ATP probe binding, KiNativ profiling, refers to: Erk5 Lys2 probe site	THP-1 cell lysate	–	–	IC50	> 5 µM
CSc1ccccc1C(=O)NCCn1cc(C(=O)NCc2cccc(C)n2)c(=O)c2cc3c(cc21)OCO3	CYP2C19 (Homo sapiens, UniProt P33261)	enzyme activity, inhibitor	human liver microsomes	20 min, 30 min NADPH preincubation, with: mephenytoin 50 µM	–	IC50	> 100 µM
CCCCCCCCOC(C)=O	uncharacterized protein (Spodoptera exigua, UniProt F1CEY0)	binding, fluorescence competitive binding	–	with: 1-NPN 2.0 µM	–	IC50	7.99 µM
Cn1cnc(Cn2ccc3ccc(CNCc4[nH]c5ccccc5c4[C@H]4NC(=O)c5ccc(O)cc54)cc32)c1	GTPase KRas, GppNHp; with RAF1 RBD (KRAS, Homo sapiens, UniProt P01116, G12C)	HTRF	–	–	–	IC50	11.2 ± 2.6 µM
COc1ccccc1-c1nccc(COc2ccccc2C[C@@H](Nc2ccnc3sc(-c4ccc(F)cc4)c(-c4ccc(OCCN5CCN(C)CC5)c(Cl)c4C)c23)C(=O)O)n1	MCL1	binding, quench	–	–	–	IC50	0.0001 µM
Cc1[nH]c(C)c(S(=O)(=O)N2CCC(F)(F)C2)c1S(=O)(=O)N1CCC(F)(F)C1	DRD2	–	–	–	–	IC50	> 100 µM
O=C(O)CN1C(=O)Cc2c([nH]c3ccc(Br)cc23)-c2ccc(Cl)cc21	Trypanothione synthetase (Trypanosoma cruzi, UniProt Q9GT49)	enzyme activity	–	–	–	IC50	~30 µM
C[C@H](Oc1nccc(-c2noc([C@@]3(C)CCCc4sc(N)c(C#N)c43)n2)n1)[C@@H]1CCCN1C	KRAS with SOS1	KRAS wild type-SOS1 interaction, inhibitor, AlphaScreen	–	geometric mean	–	IC50	0.019 µM

Structure (SMILES)	tested on	assay	test system	conditions	scale	quantity	result
COC1CCN(c2ccc3c4c(cccc24)C(=O)N(c2cc4c(cc2C)n(C)c(=O)n4C)C3=O)CC1	TAF1L BD2	HTRF	–	GST-tagged protein	–	IC50	0.0486 µM
Cc1ccc2[nH]nc(-c3nnc(Nc4ccc(C)c(C)c4)s3)c2c1	α-glucosidase	enzyme activity, inhibitor	–	pH 6.8, with: p-nitrophenyl-α-D-glucopyranoside	–	IC50	9.82 ± 1.23 µM
Cc1cc(Nc2ccc(S(F)(F)(F)(F)F)cc2)n2nc(C)nc2n1	DHODH (Homo sapiens, UniProt Q02127)	enzyme activity, inhibitor	–	–	–	IC50	> 50 µM
Cc1[nH]c(C)c(S(=O)(=O)Nc2ccc(C(F)(F)F)c(Cl)c2)c1C(=O)N1CCC(C)(C)C1	DRD2	–	–	–	–	IC50	> 100 µM
COc1cc2nccc(Oc3ccc(NC(=O)c4cc5c(n(-c6ccccc6)c4=O)CCCC5=O)nc3)c2cc1OC	NTRK2	cell viability, CellTiter-Glo	Ba/F3 expressing recombinant kinase	48 h	–	IC50	0.0158 µM
CC(C)C[C@H](NC(=O)[C@H](Cc1cccc2ccccc12)NC(=O)OCc1ccccc1)C(=O)N[C@H](CS)C[C@@H]1CCNC1=O	Genome polyprotein, protease domain (Lordsdale virus, UniProt P54634)	protease activity, inhibitor, FRET	–	37 °C	–	IC50	> 10 µM
COC(=O)[C@@H]1CCCN1C(=O)c1c(C)[nH]c(C)c1S(=O)(=O)Nc1ccc(C(F)(F)F)c(Cl)c1	DRD2	–	–	–	–	IC50	> 100 µM
Cc1cccc(-c2nc(-c3ccc(/C(N)=N/O)cc3)[nH]c2-c2ccncc2)c1	CSNK1E	inhibitor	–	–	–	IC50	0.295 ± 0.048 µM
CN1CCN(c2ccc(Nc3ncc4cc(C#N)c(=O)n(C5CCCC5)c4n3)cc2)CC1	MAP3K3 (Homo sapiens, UniProt Q99759)	–	–	–	–	IC50	> 10 µM
Cc1c(N2CCOCC2)oc2c(-c3ccc(Nc4ncc5cc(C(=O)N(C)C)n(C6CCCC6)c5n4)cc3F)cccc2c1=O	CDK6 with cyclin D1	inhibitor, HotSpot radiometric kinase	–	with: 10 µM ATP, cyclin D1	–	IC50	6.04 µM
C=C(C)C1CC=C(C)CC1 (centres unmarked)	α-glucosidase	–	–	with: 4-nitrophenyl α-D-glucopyranoside	–	IC50	> 30 mg/mL
CC1CCC(CNC(=O)c2snc(N)c2Cl)CC1 (centres unmarked)	Lysine--tRNA ligase, cytoplasmic	enzyme activity, inhibitor	–	–	–	IC50	2 µM
Fc1ccc(-c2nc(-c3c(F)cccc3Cl)[nH]c2-c2ccncc2)cc1	CSNK1E	inhibitor	–	–	–	IC50	0.0618 ± 0.0167 µM
COc1ccc2c(c1OC)CN1CCc3cc4c(cc3C1=C2)OCO4	HPGDS (Homo sapiens, UniProt O60760)	enzyme activity, inhibitor, fluorescence polarisation	–	1 h, room temperature	–	IC50	3.7 ± 1.1 µM
Cc1cc2c(cc1N1C(=O)c3cccc4c(N5CCCCC5)ccc(c34)C1=O)n(C)c(=O)n2C	TAF1L BD2	HTRF	–	GST-tagged protein	–	IC50	0.0624 µM
O=C1NC(=O)C2(N1)c1ccccc1-c1ccccc12	GABA-A receptor alpha-1/beta-3, with gamma-2 subunit (GABRA1/GABRB3, Homo sapiens, UniProt P14867+P28472)	–	–	α1β3γ2 receptor	–	IC50	45 µM
C[C@H](NC(=O)c1snc(N)c1Cl)C1CCCCC1	Lysine--tRNA ligase, cytoplasmic	enzyme activity, inhibitor	–	–	–	IC50	3.98 µM
Cc1nn(-c2nc3c(F)cc(F)cc3s2)c(O)c1C(c1ccc(C(F)(F)F)cc1)c1c(C)nn(-c2nc3c(F)cc(F)cc3s2)c1O	CGAS (Homo sapiens, UniProt Q8N884)	enzyme activity, inhibitor, pyrophosphatase-coupled	–	human cGAS	–	IC50	11.7 µM
O=C(O)c1cccnc1Nc1cccc(C(F)(F)F)c1	TEAD4 (Homo sapiens, UniProt Q15561)	thiol conjugation, inhibitor, CPM	–	pH 6.5	–	IC50	29.9 µM

Structure (SMILES)	tested on	assay	test system	conditions	scale	quantity	result
CNCCN1CCN(c2cnc3c(cc(C(=O)NCc4ccc(Cl)cc4)c(=O)n3CC(=O)N3CC(C)(F)C3)n2)C1=O	DNA polymerase catalytic subunit	enzyme activity, inhibitor	–	at least duplicate	–	IC50	0.57 µM
CS(=O)(=O)Nc1cc2occ(NC=O)c(=O)c2cc1Oc1ccccc1	PTGS2	inhibitor	–	–	–	IC50	20 µM
CN1CCN(c2cnc3c(cc(C(=O)NCc4ccc(Cl)cc4)c(=O)n3CC(=O)N3CC(C)(F)C3)n2)C1=O	DNA polymerase catalytic subunit	enzyme activity	–	at least duplicate	–	IC50	0.31 µM
Cc1cccc(Nc2ccccc2C(=O)O)c1C	UGT2B7 (Homo sapiens, UniProt P16662)	enzyme activity, inhibitor	human liver microsomes, 2% BSA	with: zidovudine below Km	–	IC50	12 µM
Cc1ccc2[nH]nc(-c3nnc(Nc4ccc(Br)cc4)s3)c2c1	α-glucosidase	enzyme activity, inhibitor	–	pH 6.8, with: p-nitrophenyl-α-D-glucopyranoside	–	IC50	11.1 ± 1.43 µM
CN(C)C(=O)c1cc2cnc(Nc3cc(C(F)(F)F)c(-c4cccc5c(=O)cc(N6CCOCC6)oc45)cn3)nc2n1C1CCCC1	CDK6 with cyclin D1	inhibitor, HotSpot radiometric kinase	–	with: 10 µM ATP, cyclin D1	–	IC50	> 10 µM
Cc1[nH]c(C)c(S(N)(=O)=Nc2ccc(C(F)(F)F)c(Cl)c2)c1C(=O)N1CCC(F)(F)C1 (centres unmarked)	DRD2	–	–	–	–	IC50	> 100 µM
O=C(CCC(=O)N[C@@H](CCCCNC(=S)NCCc1cc(O)n[nH]1)C(=O)N[C@@H](Cc1c[nH]c2ccccc12)C(=O)NC1CCC1)NCCOCCOCCCCCCCl	SIRT5	enzyme activity, inhibitor	–	–	–	IC50	46 ± 2 µM
CC(C)(/C=C(\C#N)C(=O)N1CCC[C@@H](n2nc(-c3ccc(Oc4ccccc4)cc3F)c3c(N)ncnc32)C1)N1CCN(C2COC2)CC1	Phosphatidylinositol 4,5-bisphosphate 3-kinase catalytic subunit delta isoform, with p85alpha (PIK3CD, Homo sapiens, UniProt O00329)	–	–	–	–	IC50	2.21 µM
C[C@H]1CNCCN1c1nccc(-c2noc([C@@]3(C)CCCc4sc(N)c(C#N)c43)n2)n1	KRAS with SOS1	KRAS wild type-SOS1 interaction, inhibitor, AlphaScreen	–	geometric mean	–	IC50	0.131 µM
COc1ccccc1-c1nccc(COc2ccccc2C[C@@H](Oc2nccc3nc(-c4ccc(F)cc4)c(-c4ccc(OCCN5CCN(C)CC5)c(Cl)c4C)n23)C(=O)O)n1	MCL1	binding, quench	–	–	–	IC50	0.0082 µM
Cc1[nH]c(C)c(S(=O)(=O)Nc2ccc(C(F)(F)F)c(Cl)c2)c1C(=O)N1CCC(C#N)C1 (centres unmarked)	DRD2	–	–	–	–	IC50	> 100 µM
Cc1cc2c(cc1N1C(=O)c3cccc4cccc(c34)C1=O)n(C)c(=O)n2C	TAF1L BD2	HTRF	–	GST-tagged protein	–	IC50	0.374 µM
CCc1cc2c(cc1N1CCC(N3CCOCC3)CC1)C(C)(C)c1[nH]c3cc(C#N)ccc3c1C2=O	NTRK3 (Homo sapiens, UniProt Q16288)	enzyme activity, inhibitor	–	with: 1 mM ATP	–	IC50	> 0.765 µM
Cn1cc(-c2ccc(-c3cncc(Cl)c3N3CCC4(CCNC4=O)CC3)cc2)cn1	COLO 205	microarray, refers to: SDC4	–	concentration not given, 2 h, gene set Syndecan-4	baseline: untreated cells	fold change in expression	2.76
COc1cc(N2CCC(N3CCN(C)CC3)CC2)ccc1Nc1ncc(Cl)c(Nc2ccccc2P(C)(C)=O)n1	NTRK2	cell-based	–	–	–	IC50	3.15 µM
Cc1[nH]cc(C(=O)N2CCC(F)(F)C2)c1S(=O)(=O)Nc1ccc(C(F)(F)F)c(Cl)c1	DRD2	–	–	–	–	IC50	> 100 µM
CC(C)C[C@H](NC(=O)[C@H](CCc1ccccc1)NC(=O)CN1CCOCC1)C(=O)N[C@@H](Cc1ccccc1)C(=O)N[C@@H](CC(C)C)C(=O)[C@@]1(C)CO1	Proteasome subunit beta type-1/Psmb5, β5 subunit (Mus musculus, UniProt O09061+O55234)	proteasome subunit activity	Ba/F3 BCR-ABL1 T315I	1 h pulse	–	IC50	0.00571 ± 0.00114 µM
